# Measurements gathered from unrelated publications.
# Compare with care: the assays were run in different laboratories.
Structure (SMILES),test,test system,setting,scale,endpoint,result
C=C[C@@H]1C[C@]1(NC(=O)[C@@H]1C[C@@H](Oc2ncc(OC)c3ccc(Cl)cc23)CN1C(=O)[C@@H](NC(=O)OC(C)(C)C)C(C)(C)C)C(=O)NS(=O)(=O)C1CC1,,human,"oral, baseline AST 123.6 U/L",reference: median baseline AST 52 U/L,CL/F ratio,0.6 fold
CCc1cc(/C(C)=N/OCc2ccc(C3CCCCC3)c(C(F)(F)F)c2)ccc1CN1CC(C(=O)O)C1,,healthy human,"oral, 4 mg, geometric mean, with: fluconazole steady state",,CL/F,1.8 L/h
Cc1cccc(C)c1OCC(=O)N[C@@H](Cc1ccccc1)[C@@H](O)C[C@H](Cc1ccccc1)NC(=O)[C@H](C(C)C)N1CCCNC1=O,,"human, HIV+/HCV+ with cirrhosis, plasma","total drug, steady state, median, with: lopinavir/ritonavir twice daily",,CL/F,1.18 mL/min/kg
COC(=O)N[C@H](C(=O)N1CCC[C@H]1c1nc(-c2ccc(-c3ccc(-c4c[nH]c([C@@H]5CCCN5C(=O)[C@@H](NC(=O)OC)C(C)C)n4)cc3)cc2)c[nH]1)C(C)C,,human,"oral, dose not given, with: pegIFN/ribavirin",reference: asunaprevir combination,CL/F reduction,~10%
CCCC[C@H](NC(C)=O)C(=O)N[C@H]1CCC(=O)NC[C@@H](C(=O)N[C@@H](Cc2c[nH]c3ccccc23)C(N)=O)NC(=O)[C@H](CCCNC(=N)N)NC(=O)[C@@H](Cc2ccccc2)NC(=O)[C@H](Cc2c[nH]cn2)NC1=O,,"healthy human, both sexes, plasma","subcutaneous, 1.0 mg once daily, day 1, geometric mean",,CL/F,19.6 L/h
CC[C@H](C)[C@@H]1NC(=O)[C@H](CCCNC(=N)N)NC(=O)[C@H](CC(=O)O)NC(=O)[C@H](CC(C)C)NC(=O)[C@H](CCCCN)NC(=O)[C@H](CC(C)C)NC(=O)CNC(=O)[C@H](Cc2ccccc2)NC(=O)[C@@H](NC(=O)CNC(=O)[C@H](CCCCN)NC(=O)[C@H](CO)NC(=O)[C@H](CC(C)C)NC(=O)CNC(=O)[C@H](CCCCN)NC(=O)[C@H](CCCCN)NC(=O)[C@H](CC(N)=O)NC(=O)[C@H](C)NC(=O)CNC(=O)[C@H](CCCCN)NC(=O)[C@H](Cc2ccc(O)cc2)NC(=O)[C@H](CCCCN)NC(=O)[C@H](CCCNC(=N)N)NC(=O)[C@H](C)NC(=O)[C@H](CC(N)=O)NC(=O)[C@@H]2CCCN2C(=O)[C@H](Cc2c[nH]cn2)NC(=O)[C@H](CCC(=O)O)NC(=O)[C@H](CCC(N)=O)NC(=O)CNC(=O)[C@@H]2CCCN2)CSSC[C@@H](C(=O)O)NC(=O)CNC(=O)[C@H](CC(C)C)NC(=O)CNC(=O)[C@H](CO)NC(=O)[C@H](CCSC)NC(=O)[C@H](CO)NC(=O)CNC1=O,ECLA,"human, plasma","subcutaneous, 15 µg/kg once daily, day 1",,CL/F,104 mL/min/kg
CC(C)NC[C@@H](C(=O)N1CCN(c2ncnc3c2[C@H](C)C[C@H]3O)CC1)c1ccc(Cl)cc1,,"human, hepatic impairment Mild (Child-Pugh), plasma","oral, 100 mg single, geometric mean",,CL/F,310 L/h
CNC(=O)c1ccc(-c2cnc3ncc(Cc4ccc5ncccc5c4)n3n2)cc1F,,"healthy human subjects, plasma","oral, 400 mg, geometric mean, alone",,CL/F,35.4 L/h

# Some of these lines once more:
Structure (SMILES),test,test system,setting,scale,endpoint,result
CCc1cc(/C(C)=N/OCc2ccc(C3CCCCC3)c(C(F)(F)F)c2)ccc1CN1CC(C(=O)O)C1,,healthy human,"oral, 4 mg, geometric mean, with: fluconazole steady state",,CL/F,1.8 L/h
